Experimental data collected from several papers.
Every numbered part comes from another study and shows a few of its results, in no order. Substitutions count along the parent as printed.

Sample 1 — method: universal PBM; molecule type: double-stranded DNA, one strand shown; sample: in vitro; tested at: not given; direction: higher = stronger binding; quantity: E-score
Target: Sal-like protein 4, full length isoform B (SALL4, Homo sapiens, UniProt Q9UJQ4-2, residues 1-616)
Setting: 8-mer, flanks averaged, mean of replicates
AAAGGTGT: -0.0691
GAGTCTAC: -0.029
ACAGAGAA: -0.0283
ATCAAGAG: 0.151
GTCGAGAC: -0.0325
AGTCAATA: 0.184
CGTAATGA: 0.0145
CCCTCAGG: -0.251

Sample 2 — method: protein binding microarray; molecule type: double-stranded DNA, one strand shown; sample: in vitro; tested at: not given; baseline: not given; direction: higher = stronger binding; quantity: E-score
Target: Histone acetyltransferase KAT6A, winged helix 2, GST fusion (KAT6A, Homo sapiens, UniProt Q92794, residues 85-181)
Setting: 8-mer, flanks averaged, mean of 2 arrays, mostly near background
Residues (chain): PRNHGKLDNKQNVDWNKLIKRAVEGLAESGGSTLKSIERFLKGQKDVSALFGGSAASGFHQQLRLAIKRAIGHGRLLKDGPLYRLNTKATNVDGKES
CCTAATCA: 0.0581
AGGACATA: 0.0322
ATCGTCAA: -0.0158
ATCAAGCG: 0.0196
CCAAGTAA: 0.0244
CACGGTGA: -0.00754
AAGGATTA: -0.0231
ACTTTACC: -0.0435

Sample 3 — method: Sort-seq; refers to: YFP reporter; sample: E. coli; setting: PhoQ-PhoP variant library; added: 10 µM Mg2+; baseline: high Mg2+ state; direction: higher = stronger signaling; quantity: fold induction
Molecule: PhoQ, residues 284 288 289 292 302 303 SLANIV
PhoP, residues 12 14 15 18 19 QQAYL (Escherichia coli, UniProt P23836): 16.2
PhoP, residues 12 14 15 18 19 LFHKL (Escherichia coli, UniProt P23836): 2.64
PhoP, residues 12 14 15 18 19 GMGLL (Escherichia coli, UniProt P23836): 3.05

Sample 4 — target: CCNF, cyclin fold, Cln2 fusion (human); method: yeast growth competition, sequencing; sample: yeast; setting: strong parent motif; baseline: not given; direction: higher = stronger binding; quantity: normalised enrichment score
Starting sequence: SCAPER docking peptide (human); SNARRSLNFGGST
SRARRSLNFGGST [N2R]: 6.63
SSARRSLNFGGST [N2S]: 7.12
SNARRHLNFGGST [S6H]: 7.95
SYARRSLNFGGST [N2Y]: 7.01

For quick reference, copied from above (sample 1):
AAAGGTGT: -0.0691
GAGTCTAC: -0.029
